Results pooled from the literature.
A part holds a random share of what one study measured. Several values in a cell are separate wells, animals, samples, runs or records. pIC50: −log10 of the molar value.
UniProt Q9UM73, sequence (whole entry, unmodified, looked up): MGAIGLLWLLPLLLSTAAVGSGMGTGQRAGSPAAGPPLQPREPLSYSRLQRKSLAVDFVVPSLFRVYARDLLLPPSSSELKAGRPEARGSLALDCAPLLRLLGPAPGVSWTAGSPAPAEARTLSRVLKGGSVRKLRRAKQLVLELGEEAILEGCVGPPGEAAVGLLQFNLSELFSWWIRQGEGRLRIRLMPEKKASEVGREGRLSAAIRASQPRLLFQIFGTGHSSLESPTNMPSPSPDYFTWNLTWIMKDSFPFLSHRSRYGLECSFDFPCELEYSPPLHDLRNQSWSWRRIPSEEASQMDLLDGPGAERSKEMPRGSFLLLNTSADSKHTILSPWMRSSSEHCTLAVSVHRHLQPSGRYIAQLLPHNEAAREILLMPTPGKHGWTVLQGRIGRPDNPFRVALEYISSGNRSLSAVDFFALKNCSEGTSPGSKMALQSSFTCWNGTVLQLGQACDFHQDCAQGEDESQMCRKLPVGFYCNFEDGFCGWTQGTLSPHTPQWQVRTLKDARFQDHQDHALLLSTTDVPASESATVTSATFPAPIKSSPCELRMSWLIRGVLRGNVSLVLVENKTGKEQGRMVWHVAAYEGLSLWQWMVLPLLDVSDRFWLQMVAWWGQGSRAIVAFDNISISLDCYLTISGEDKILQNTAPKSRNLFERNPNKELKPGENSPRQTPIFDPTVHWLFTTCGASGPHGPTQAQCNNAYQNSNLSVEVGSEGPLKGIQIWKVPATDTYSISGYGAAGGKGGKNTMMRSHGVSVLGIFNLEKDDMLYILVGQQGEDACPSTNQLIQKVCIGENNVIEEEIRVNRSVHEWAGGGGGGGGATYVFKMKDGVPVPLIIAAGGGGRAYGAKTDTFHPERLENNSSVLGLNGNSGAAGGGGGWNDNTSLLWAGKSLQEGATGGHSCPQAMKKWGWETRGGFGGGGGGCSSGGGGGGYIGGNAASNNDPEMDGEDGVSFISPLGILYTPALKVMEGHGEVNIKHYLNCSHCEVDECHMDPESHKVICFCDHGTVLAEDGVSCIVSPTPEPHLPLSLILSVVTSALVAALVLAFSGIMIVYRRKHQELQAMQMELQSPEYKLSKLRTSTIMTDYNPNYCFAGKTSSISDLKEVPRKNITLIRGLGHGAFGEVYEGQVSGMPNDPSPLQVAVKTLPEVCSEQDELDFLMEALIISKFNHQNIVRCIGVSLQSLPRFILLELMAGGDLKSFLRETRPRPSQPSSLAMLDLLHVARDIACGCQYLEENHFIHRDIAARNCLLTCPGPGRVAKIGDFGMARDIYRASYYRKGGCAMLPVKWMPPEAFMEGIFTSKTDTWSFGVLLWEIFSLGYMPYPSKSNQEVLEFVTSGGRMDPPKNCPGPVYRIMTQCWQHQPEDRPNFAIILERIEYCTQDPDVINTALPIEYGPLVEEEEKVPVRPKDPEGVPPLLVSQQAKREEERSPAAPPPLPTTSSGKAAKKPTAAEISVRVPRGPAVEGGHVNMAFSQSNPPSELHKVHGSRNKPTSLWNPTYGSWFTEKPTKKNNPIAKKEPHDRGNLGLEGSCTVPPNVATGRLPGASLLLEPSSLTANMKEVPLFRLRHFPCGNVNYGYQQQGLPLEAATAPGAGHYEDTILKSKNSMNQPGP
UniProt P16591, sequence (whole entry, looked up): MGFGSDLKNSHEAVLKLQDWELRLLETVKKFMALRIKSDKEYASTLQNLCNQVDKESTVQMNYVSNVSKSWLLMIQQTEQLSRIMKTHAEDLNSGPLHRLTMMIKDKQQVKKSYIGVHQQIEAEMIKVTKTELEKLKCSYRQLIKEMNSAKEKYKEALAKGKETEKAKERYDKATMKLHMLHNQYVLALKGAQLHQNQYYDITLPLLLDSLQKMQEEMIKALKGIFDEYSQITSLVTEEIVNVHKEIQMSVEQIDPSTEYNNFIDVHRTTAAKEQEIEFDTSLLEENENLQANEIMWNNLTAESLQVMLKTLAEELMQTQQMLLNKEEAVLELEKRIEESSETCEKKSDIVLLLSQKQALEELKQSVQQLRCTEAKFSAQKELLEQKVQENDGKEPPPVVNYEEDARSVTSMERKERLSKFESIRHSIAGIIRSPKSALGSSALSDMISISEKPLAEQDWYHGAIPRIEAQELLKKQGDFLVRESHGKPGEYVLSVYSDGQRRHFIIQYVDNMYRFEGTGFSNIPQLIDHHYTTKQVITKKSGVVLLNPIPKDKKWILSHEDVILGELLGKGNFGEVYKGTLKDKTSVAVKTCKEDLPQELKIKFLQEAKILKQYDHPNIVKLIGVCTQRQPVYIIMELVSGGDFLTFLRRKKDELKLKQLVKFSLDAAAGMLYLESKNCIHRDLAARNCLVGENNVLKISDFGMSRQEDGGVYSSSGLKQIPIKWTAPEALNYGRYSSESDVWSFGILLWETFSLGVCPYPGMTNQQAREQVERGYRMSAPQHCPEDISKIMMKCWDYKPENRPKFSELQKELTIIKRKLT
UniProt Q14680, sequence (whole entry, looked up): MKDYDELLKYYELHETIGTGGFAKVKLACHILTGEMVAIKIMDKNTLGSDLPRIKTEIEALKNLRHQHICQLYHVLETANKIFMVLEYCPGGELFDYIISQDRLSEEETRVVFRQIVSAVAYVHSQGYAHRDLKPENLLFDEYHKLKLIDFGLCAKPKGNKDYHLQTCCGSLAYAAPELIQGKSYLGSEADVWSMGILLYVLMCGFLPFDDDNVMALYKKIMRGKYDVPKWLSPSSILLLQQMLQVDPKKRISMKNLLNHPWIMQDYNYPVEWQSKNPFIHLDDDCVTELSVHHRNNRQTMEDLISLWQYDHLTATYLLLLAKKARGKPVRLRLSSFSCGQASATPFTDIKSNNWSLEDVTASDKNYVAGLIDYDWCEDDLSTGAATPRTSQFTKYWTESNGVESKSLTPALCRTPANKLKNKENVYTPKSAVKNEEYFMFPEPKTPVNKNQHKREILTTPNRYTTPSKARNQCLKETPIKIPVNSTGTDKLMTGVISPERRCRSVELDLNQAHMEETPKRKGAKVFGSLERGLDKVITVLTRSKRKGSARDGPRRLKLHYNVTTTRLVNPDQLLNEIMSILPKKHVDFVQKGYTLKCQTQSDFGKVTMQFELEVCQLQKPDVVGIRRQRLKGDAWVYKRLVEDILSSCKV
UniProt P57059, sequence (whole entry, looked up): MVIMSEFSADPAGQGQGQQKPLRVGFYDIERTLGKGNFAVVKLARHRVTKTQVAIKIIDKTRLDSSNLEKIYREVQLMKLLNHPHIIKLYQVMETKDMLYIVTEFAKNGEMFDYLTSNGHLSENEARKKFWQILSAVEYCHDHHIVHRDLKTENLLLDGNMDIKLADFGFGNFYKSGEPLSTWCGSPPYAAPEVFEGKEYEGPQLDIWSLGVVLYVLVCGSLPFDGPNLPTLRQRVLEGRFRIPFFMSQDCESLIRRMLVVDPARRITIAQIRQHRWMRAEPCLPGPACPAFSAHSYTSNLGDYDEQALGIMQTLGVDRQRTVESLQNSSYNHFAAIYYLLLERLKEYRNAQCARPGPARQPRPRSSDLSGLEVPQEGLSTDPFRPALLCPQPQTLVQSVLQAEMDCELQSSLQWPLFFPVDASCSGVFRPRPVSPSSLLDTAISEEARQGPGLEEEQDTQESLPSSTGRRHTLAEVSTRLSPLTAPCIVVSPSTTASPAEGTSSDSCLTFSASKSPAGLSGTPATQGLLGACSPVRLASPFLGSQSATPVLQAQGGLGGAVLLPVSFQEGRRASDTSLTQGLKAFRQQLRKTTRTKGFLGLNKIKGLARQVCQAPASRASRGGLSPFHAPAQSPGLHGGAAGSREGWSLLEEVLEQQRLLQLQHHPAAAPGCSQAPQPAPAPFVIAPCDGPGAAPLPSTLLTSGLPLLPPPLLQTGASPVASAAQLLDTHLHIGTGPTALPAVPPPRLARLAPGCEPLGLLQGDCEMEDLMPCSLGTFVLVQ
UniProt Q9P1W9, sequence (whole entry, looked up): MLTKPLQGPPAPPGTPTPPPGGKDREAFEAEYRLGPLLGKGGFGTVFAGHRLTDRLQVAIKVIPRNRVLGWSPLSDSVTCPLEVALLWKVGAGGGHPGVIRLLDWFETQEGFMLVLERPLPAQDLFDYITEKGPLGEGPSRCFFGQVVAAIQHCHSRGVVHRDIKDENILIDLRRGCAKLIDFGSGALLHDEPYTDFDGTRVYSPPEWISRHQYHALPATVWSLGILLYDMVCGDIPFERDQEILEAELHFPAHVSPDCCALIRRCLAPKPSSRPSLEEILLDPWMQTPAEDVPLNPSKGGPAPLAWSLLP

Sample 1
Target: Eukaryotic initiation factor 4A-I (EIF4A1, Homo sapiens, UniProt P60842)
UniProt P60842, sequence (whole entry, looked up): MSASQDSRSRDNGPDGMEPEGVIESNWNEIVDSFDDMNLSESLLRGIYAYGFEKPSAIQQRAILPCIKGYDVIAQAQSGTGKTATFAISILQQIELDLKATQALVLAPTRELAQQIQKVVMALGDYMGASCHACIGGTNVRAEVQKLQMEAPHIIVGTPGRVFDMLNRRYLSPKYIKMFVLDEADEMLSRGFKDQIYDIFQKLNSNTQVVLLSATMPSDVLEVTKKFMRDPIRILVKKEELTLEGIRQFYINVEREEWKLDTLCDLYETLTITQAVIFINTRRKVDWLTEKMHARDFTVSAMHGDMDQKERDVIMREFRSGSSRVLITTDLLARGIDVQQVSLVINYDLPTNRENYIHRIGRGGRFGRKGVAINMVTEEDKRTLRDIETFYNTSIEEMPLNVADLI
Observed: RNA clamping
Technique: fluorescence polarization
Concentration: concentration not given
Notes: mean of two replicates
With: FAM-labelled poly r(AG)8 RNA
Quantity: fluorescence polarization change
COC(=O)[C@@H]1[C@@H](c2ccccc2)[C@]2(c3ccc(OC)cc3)Oc3cc(OC)cc(OC)c3[C@@]23NC(C2CCN(C(=O)OC(C)(C)C)CC2)=N[C@@]13O: 39 mP
COc1ccc([C@@]23Oc4cc(OC)cc(OC)c4[C@]2(O)[C@H](O)[C@H](C(=O)c2ccco2)[C@H]3c2ccccc2)cc1: 29.4 mP and 38.7 mP
O[C@H]1C[C@@H](c2ccccc2)[C@]2(c3ccc(Cl)cc3)Oc3cc(OCCN4CCCC4)ccc3[C@]12O: 82.5 mP
COc1ccc([C@]23Oc4cc(OC)cc(OC)c4[C@@]2(O)c2nc(-c4cccc(OC)c4)[nH]c(=O)c2[C@@H]3c2ccccc2)cc1: 17.8 mP
CCCC1=N[C@@]2(O)[C@H](C(=O)OC)[C@@H](c3ccccc3)[C@]3(c4ccc(OC)cc4)Oc4cc(OC)cc(OC)c4[C@]23N1: 66 mP
COc1ccc([C@@]23Oc4cc(OC)cc(OC)c4[C@]2(O)[C@H](O)[C@H](C(=O)c2ccco2)[C@H]3c2ccccc2OC)cc1: 33 mP
COC(=O)[C@H]1C(=O)[C@@]2(NCCc3scnc3C)c3c(OC)cc(OC)cc3O[C@@]2(c2ccc(OC)cc2)[C@@H]1c1ccccc1: -5.8 mP
C#CCOc1cc(OC)c2c(c1)O[C@@]1(c3ccc(OC)cc3)[C@H](c3ccccc3)c3c(nc(-c4ccccc4)[nH]c3=O)[C@@]21O: 3.5 mP
COC(=O)[C@H]1C(=O)[C@@]2(NC(C)C)c3c(OC)cc(OC)cc3O[C@@]2(c2ccc(OC)cc2)[C@@H]1c1ccccc1: 6.3 mP
COC(=O)[C@H]1[C@@H](O)[C@@]2(O)c3c(OC)cc(OC)cc3N(C)[C@@]2(c2ccc(Br)cc2)[C@@H]1c1ccccc1: 18 mP
COC(=O)[C@@H]1[C@@H](O)[C@@]2(O)c3c(OC)cc(OS(=O)(=O)c4ccc(C)cc4)cc3O[C@@]2(c2ccc(OC)cc2)[C@H]1c1ccccc1: 3 mP
COC(=O)[C@@H]1[C@@H](c2ccccc2)[C@]2(c3ccc(OC)cc3)Oc3cc(OC)cc(OC)c3[C@@]23NC(c2cccnc2)=N[C@@]13O: 34.6 mP

Sample 2
Compound: CC(C)(C)n1nc(Cc2cccc3ccccc23)c2c(N)ncnc21
Observed: enzyme activity
Mode: inhibitor
Concentration: 0.5 µM
Reference: control
Quantity: remaining activity
Serine/threonine-protein kinase Nek11 (NEK11, Homo sapiens, UniProt Q8NG66): 99.3%
Vascular endothelial growth factor receptor 3 (FLT4, Homo sapiens, UniProt P35916): 79.8%
Serine/threonine-protein kinase N1 (PKN1, Homo sapiens, UniProt Q16512): 99.6%
Megakaryocyte-associated tyrosine-protein kinase (MATK, Homo sapiens, UniProt P42679): 93%
Serine/threonine-protein kinase MRCK alpha (CDC42BPA, Homo sapiens, UniProt Q5VT25): 92.5%
Serine/threonine-protein kinase NLK (NLK, Homo sapiens, UniProt Q9UBE8): 65.7%
Homeodomain-interacting protein kinase 1 (HIPK1, Homo sapiens, UniProt Q86Z02): 95.2%
LIM domain kinase 1 (LIMK1, Homo sapiens, UniProt P53667): 94.5%
Cyclin-dependent kinase 3, with cyclin E (CDK3, Homo sapiens, UniProt Q00526): 87.8%
PAS domain-containing serine/threonine-protein kinase (PASK, Homo sapiens, UniProt Q96RG2): 101%
Tyrosine-protein kinase Fgr (FGR, Homo sapiens, UniProt P09769): 60.4%
Tyrosine-protein kinase ITK/TSK (ITK, Homo sapiens, UniProt Q08881): 86.5%
cAMP-dependent protein kinase catalytic subunit PRKX (PRKX, Homo sapiens, UniProt P51817): 103%
Proto-oncogene tyrosine-protein kinase Src (SRC, Homo sapiens, UniProt P12931): 67.3%
MAP/microtubule affinity-regulating kinase 3 (MARK3, Homo sapiens, UniProt P27448): 81.5%
Serine/threonine-protein kinase TAO3 (TAOK3, Homo sapiens, UniProt Q9H2K8): 86%
Tyrosine-protein kinase Fer (FER, Homo sapiens, UniProt P16591): 76.4%
Serine/threonine-protein kinase 25 (STK25, Homo sapiens, UniProt O00506): 93%
Tyrosine-protein kinase Fyn (FYN, Homo sapiens, UniProt P06241): 44.7%
RAC-alpha serine/threonine-protein kinase (AKT1, Homo sapiens, UniProt P31749): 94.2%
Insulin receptor (INSR, Homo sapiens, UniProt P06213): 102%
ALK tyrosine kinase receptor (ALK, Homo sapiens, UniProt Q9UM73): 91.9%

Sample 3
SMILES: CS(=O)(=O)c1cc(C2(NC(=O)c3cncc4c3cnn4-c3ccc(F)cc3)CC2)ccn1
Concentration: 1 µM
Quantity: remaining binding
Interleukin-1 receptor-associated kinase 3 (IRAK3, Homo sapiens, UniProt Q9Y616); cell-free assay, competition with immobilised ligand: 59%
RAC-gamma serine/threonine-protein kinase (AKT3, Homo sapiens, UniProt Q9Y243); cell-free assay, competition with immobilised ligand: 96%
Serine/threonine-protein kinase SIK1 (SIK1, Homo sapiens, UniProt P57059); competition binding: 100%
Serine/threonine-protein kinase 36 (STK36, Homo sapiens, UniProt Q9NRP7); cell-free assay, competition with immobilised ligand: 100%
Serine/threonine-protein kinase pim-2 (PIM2, Homo sapiens, UniProt Q9P1W9); cell-free assay, competition with immobilised ligand: 100%
ALK tyrosine kinase receptor (ALK, Homo sapiens, UniProt Q9UM73, L1196M); cell-free assay, competition with immobilised ligand: 100%
Proto-oncogene tyrosine-protein kinase receptor Ret (RET, Homo sapiens, UniProt P07949); cell-free assay, competition with immobilised ligand: 100%
Maternal embryonic leucine zipper kinase (MELK, Homo sapiens, UniProt Q14680); cell-free assay, competition with immobilised ligand: 100%
Epidermal growth factor receptor (EGFR, Homo sapiens, UniProt P00533, L858R/T790M); cell-free assay, competition with immobilised ligand: 81%
Ephrin type-B receptor 6 (EPHB6, Homo sapiens, UniProt O15197); cell-free assay, competition with immobilised ligand: 100%
Phosphatidylinositol 4,5-bisphosphate 3-kinase catalytic subunit alpha isoform (PIK3CA, Homo sapiens, UniProt P42336, H1047L); cell-free assay, competition with immobilised ligand: 100%
Peripheral plasma membrane protein CASK (CASK, Homo sapiens, UniProt O14936); cell-free assay, competition with immobilised ligand: 100%
Hepatocyte growth factor receptor (MET, Homo sapiens, UniProt P08581, Y1235D); cell-free assay, competition with immobilised ligand: 91%
Serine/threonine-protein kinase 32A (STK32A, Homo sapiens, UniProt Q8WU08); cell-free assay, competition with immobilised ligand: 71%
Casein kinase II subunit alpha (CSNK2A1, Homo sapiens, UniProt P68400); cell-free assay, competition with immobilised ligand: 64%
Mitogen-activated protein kinase 1 (MAPK1, Homo sapiens, UniProt P28482); cell-free assay, competition with immobilised ligand: 94%
Testis-specific serine/threonine-protein kinase 3 (TSSK3, Homo sapiens, UniProt Q96PN8); cell-free assay, competition with immobilised ligand: 100%

Sample 4
Target: Beta-1 adrenergic receptor (ADRB1, Homo sapiens, UniProt P08588)
UniProt P08588, sequence (whole entry, looked up): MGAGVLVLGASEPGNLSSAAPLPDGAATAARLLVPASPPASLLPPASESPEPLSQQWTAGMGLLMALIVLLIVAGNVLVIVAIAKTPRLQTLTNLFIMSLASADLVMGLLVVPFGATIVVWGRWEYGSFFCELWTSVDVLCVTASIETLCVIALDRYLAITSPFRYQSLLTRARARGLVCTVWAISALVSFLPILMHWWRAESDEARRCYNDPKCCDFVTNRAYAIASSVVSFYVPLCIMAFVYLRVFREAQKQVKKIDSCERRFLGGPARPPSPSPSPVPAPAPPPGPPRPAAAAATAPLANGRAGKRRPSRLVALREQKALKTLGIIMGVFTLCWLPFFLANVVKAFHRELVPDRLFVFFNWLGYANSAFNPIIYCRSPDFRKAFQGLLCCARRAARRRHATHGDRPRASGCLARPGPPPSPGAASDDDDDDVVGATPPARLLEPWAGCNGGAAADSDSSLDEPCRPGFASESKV
Mode: antagonist
Quantity: pIC50
Cn1cc(-c2ccc3ncc(-c4cccc(NC5CNC5)n4)n3c2)cn1: ≤ 4.00
OC(c1nc(Nc2cccc(N3CCOCC3)c2)n[nH]1)C1CC1 (stereo not drawn): ≤ 4.00
COc1ccccc1N1CCN(CC(=O)Nc2ccc(C(N)=O)cc2)CC1: ≤ 4.00
Cc1nc(C2CC(O)C2)cc(N2CC(N3CCOCC3)C2)n1 (stereo not drawn): ≤ 4.00
FC(F)(F)c1cccc(-c2noc(-c3c[nH]nc3-c3ccccc3)n2)c1: ≤ 4.00
Cc1ccc(-c2cc(C(=O)N3CCC(c4nc(C5CCOCC5)no4)C3)c3ccccc3n2)cc1C (stereo not drawn): ≤ 4.00
O=c1oc2ccccc2cc1-c1nc2c(s1)CCc1ccccc1-2: ≤ 4.00
CN(C(=O)c1sc2nc(-c3cccs3)cc(C(F)(F)F)c2c1N)c1ccc(F)cc1: ≤ 4.00
CCN1C(=O)COC[C@@H]1[C@H](O)c1ccc(NC(=O)c2cccs2)cc1: ≤ 4.00
COc1ccccc1N1CCN([C@H]2[C@@H]3OC[C@@H](O3)[C@@H](NCc3ccc4c(c3)OCO4)[C@@H]2O)CC1: ≤ 4.00
O=C(NC1CCN(c2cc(-c3ccccc3)n[nH]2)CC1)c1ccc2ccccc2n1: ≤ 4.00
COc1ccccc1N1CCN(CC[C@@H]2CC[C@H](O)[C@@H](C(=O)NC3CCCCC3)O2)CC1: ≤ 4.00
c1ccc(-n2ncc3c(N4CCNc5ccccc5C4)ncnc32)cc1: ≤ 4.00
CN(C)CCNc1cc(-c2cccs2)nc2ccccc12: ≤ 4.00
COc1ccccc1N1CCN([C@H]2[C@@H]3OC[C@@H](O3)[C@@H](NCc3ccccc3O)[C@@H]2O)CC1: ≤ 4.00
